# Results collected from several papers.
# Numbered parts are unrelated; each lists some results of a single study.
# Sequence of UniProt Q9UBS0 (whole entry, looked up): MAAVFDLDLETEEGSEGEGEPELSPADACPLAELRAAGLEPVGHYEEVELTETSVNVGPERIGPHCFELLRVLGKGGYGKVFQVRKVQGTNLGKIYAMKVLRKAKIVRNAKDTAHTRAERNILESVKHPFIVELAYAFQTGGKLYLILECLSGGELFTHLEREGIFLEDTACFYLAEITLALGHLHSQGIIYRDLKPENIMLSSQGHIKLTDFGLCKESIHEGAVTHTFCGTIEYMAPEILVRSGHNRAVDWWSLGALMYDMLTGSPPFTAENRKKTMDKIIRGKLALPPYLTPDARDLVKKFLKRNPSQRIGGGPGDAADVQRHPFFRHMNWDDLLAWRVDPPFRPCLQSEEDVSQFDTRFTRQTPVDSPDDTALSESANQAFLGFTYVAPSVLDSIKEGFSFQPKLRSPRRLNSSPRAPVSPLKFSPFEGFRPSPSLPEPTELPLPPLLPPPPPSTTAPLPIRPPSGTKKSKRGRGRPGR
# Sequence of UniProt Q8IY84 (whole entry, looked up): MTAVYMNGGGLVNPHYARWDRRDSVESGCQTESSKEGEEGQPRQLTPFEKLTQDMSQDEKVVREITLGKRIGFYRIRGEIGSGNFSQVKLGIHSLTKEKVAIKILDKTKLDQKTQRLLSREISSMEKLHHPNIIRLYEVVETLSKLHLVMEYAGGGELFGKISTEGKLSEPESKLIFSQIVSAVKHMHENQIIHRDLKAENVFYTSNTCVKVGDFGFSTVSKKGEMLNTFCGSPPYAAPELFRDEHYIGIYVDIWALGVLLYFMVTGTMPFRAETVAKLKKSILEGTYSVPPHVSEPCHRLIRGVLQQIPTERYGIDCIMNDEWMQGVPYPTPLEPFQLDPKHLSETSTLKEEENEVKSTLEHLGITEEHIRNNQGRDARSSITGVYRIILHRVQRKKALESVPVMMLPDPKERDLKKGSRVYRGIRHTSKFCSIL
# Sequence of UniProt P57058 (whole entry, looked up): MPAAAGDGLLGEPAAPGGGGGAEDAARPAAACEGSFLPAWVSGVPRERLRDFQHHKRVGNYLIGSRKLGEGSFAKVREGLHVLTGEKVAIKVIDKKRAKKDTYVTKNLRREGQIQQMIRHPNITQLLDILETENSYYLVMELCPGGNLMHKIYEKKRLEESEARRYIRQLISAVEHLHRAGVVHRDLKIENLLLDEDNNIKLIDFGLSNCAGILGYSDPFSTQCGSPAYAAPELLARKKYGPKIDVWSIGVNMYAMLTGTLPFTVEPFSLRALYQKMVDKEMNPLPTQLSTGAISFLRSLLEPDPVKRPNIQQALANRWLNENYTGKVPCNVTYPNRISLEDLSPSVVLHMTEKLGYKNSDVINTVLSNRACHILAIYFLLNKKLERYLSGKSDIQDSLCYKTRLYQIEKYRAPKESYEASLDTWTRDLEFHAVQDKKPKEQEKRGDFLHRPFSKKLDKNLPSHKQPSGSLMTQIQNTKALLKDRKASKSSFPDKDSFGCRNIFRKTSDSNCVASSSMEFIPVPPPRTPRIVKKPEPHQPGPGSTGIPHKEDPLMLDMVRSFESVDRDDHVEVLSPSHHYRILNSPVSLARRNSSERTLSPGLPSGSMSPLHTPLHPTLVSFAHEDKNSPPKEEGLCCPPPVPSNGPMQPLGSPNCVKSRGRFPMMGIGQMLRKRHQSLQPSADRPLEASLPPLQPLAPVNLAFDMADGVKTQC
# Sequence of UniProt Q96PY6 (whole entry, looked up): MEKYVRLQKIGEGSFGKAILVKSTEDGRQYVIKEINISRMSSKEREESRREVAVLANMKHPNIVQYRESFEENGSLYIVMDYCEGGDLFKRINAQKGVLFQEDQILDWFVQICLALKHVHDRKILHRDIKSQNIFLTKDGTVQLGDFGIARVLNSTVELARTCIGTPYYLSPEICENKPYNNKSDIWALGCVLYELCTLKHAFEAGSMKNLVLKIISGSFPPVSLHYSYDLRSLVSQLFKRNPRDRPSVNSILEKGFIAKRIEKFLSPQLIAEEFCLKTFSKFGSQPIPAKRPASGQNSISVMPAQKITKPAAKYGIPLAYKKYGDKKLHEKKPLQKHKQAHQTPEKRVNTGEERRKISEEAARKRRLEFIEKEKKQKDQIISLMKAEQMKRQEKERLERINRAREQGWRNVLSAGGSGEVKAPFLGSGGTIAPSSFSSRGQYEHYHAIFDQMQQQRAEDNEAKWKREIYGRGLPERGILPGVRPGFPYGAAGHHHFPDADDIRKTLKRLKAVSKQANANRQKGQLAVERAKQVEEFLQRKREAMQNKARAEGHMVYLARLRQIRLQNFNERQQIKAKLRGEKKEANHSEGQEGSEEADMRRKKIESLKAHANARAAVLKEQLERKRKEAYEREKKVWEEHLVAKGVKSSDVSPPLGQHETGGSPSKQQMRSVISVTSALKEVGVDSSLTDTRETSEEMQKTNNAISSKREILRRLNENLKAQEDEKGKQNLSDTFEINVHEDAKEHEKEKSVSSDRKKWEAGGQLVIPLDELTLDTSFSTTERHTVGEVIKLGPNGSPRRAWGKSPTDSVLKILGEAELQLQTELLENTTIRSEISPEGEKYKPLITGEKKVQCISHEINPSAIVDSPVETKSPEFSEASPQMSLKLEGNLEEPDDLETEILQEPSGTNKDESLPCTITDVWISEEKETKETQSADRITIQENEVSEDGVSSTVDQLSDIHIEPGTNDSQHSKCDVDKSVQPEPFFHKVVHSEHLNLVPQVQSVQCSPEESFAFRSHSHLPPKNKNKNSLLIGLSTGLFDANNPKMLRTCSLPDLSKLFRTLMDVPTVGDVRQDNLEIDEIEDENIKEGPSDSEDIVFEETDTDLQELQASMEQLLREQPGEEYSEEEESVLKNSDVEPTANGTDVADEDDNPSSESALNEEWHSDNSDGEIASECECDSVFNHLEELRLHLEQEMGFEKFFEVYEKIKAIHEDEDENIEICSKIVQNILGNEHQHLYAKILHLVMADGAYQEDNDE
# Sequence of UniProt Q13163 (whole entry, looked up): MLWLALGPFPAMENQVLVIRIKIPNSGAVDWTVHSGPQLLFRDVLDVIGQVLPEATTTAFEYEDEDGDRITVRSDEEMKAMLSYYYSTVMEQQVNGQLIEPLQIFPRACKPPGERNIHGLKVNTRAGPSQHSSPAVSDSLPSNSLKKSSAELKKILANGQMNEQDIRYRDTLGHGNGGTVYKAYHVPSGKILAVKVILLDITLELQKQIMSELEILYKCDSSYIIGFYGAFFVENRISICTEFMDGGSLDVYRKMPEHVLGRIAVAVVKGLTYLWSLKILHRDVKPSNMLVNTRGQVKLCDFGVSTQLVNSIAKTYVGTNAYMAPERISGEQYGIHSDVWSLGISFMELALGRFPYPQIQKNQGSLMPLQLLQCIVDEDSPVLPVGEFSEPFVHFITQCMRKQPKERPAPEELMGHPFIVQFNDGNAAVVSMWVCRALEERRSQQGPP
# Sequence of UniProt Q00535 (whole entry, looked up): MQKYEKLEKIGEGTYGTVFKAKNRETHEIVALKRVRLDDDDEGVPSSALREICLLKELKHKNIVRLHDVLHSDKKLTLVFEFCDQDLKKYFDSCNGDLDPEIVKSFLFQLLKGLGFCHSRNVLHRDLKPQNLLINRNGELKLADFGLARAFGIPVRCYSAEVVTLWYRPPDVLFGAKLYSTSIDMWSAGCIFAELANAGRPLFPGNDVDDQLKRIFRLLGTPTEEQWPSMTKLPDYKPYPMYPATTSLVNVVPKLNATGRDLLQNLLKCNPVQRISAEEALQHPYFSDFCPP
# Sequence of UniProt P11309 (whole entry, looked up): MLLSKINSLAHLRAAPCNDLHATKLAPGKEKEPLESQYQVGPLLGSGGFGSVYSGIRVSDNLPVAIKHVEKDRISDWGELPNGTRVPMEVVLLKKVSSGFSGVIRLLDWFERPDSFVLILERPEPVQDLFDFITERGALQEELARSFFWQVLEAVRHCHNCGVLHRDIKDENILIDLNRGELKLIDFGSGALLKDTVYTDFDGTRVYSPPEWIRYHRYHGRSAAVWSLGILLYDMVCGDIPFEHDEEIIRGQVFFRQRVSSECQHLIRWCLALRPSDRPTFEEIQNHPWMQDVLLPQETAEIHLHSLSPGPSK
# Sequence of UniProt O96013 (whole entry, looked up): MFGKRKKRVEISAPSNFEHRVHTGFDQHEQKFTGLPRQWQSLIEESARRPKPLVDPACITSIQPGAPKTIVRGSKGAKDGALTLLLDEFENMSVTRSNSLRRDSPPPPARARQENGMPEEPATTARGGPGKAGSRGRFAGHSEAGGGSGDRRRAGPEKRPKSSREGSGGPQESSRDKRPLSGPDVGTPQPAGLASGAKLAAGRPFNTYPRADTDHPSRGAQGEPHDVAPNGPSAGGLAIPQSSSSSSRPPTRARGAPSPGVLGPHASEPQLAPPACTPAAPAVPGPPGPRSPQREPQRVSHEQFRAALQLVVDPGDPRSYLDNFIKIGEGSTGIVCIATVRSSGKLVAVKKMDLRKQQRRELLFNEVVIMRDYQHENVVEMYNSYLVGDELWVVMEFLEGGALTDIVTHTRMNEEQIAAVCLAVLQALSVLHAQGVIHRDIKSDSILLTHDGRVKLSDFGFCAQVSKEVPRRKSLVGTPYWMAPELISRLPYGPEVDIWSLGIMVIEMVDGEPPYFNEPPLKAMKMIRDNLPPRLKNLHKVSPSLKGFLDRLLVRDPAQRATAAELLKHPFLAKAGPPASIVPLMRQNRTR

# Series 1
# Organism: Sarcocystis neurona
# Effect on: parasite growth
# Tested at: 10 µM
# Setting: secondary screen
Compound,inhibition [%]
Cc1c2oc3c(C)ccc(C(=O)N[C@@H]4C(=O)N[C@H](C(C)C)C(=O)N5CCC[C@H]5C(=O)N(C)CC(=O)N(C)[C@@H](C(C)C)C(=O)O[C@@H]4C)c3nc-2c(C(=O)N[C@@H]2C(=O)N[C@H](C(C)C)C(=O)N3CCC[C@H]3C(=O)N(C)CC(=O)N(C)[C@@H](C(C)C)C(=O)O[C@@H]2C)c(N)c1=O,-12.6
C[C@H]1C[C@@H]2[C@H]([C@@H](O)C[C@@]3(C)[C@H]2CC[C@]3(O)C(=O)CO)[C@@]2(C)C=CC(=O)C=C12,-26.4
O=C(CCCN1CCC(O)(c2ccc(Cl)cc2)CC1)c1ccc(F)cc1,42.3
CC[C@]1(O)C[C@H]2CN(CCc3c([nH]c4ccccc34)[C@@](C(=O)OC)(c3cc4c(cc3OC)N(C=O)[C@H]3[C@@](O)(C(=O)OC)[C@H](OC(C)=O)[C@]5(CC)C=CCN6CC[C@]43[C@@H]65)C2)C1,-22.5
CN(C)CCCC1(c2ccc(F)cc2)OCc2cc(C#N)ccc21 (centres unmarked),-15.3
C[C@H]1O[C@@H](O[C@H]2[C@@H](O)C[C@H](O[C@H]3[C@@H](O)C[C@H](O[C@H]4CC[C@@]5(C)[C@H](CC[C@@H]6[C@@H]5C[C@@H](O)[C@]5(C)[C@@H](C7=CC(=O)OC7)CC[C@]65O)C4)O[C@@H]3C)O[C@@H]2C)C[C@H](O)[C@@H]1O,35.2

# Series 2
# Target: Calcium/calmodulin-dependent protein kinase type II subunit alpha (CAMK2A, Homo sapiens, UniProt Q9UQM7)
# Sequence of UniProt Q9UQM7 (whole entry, looked up): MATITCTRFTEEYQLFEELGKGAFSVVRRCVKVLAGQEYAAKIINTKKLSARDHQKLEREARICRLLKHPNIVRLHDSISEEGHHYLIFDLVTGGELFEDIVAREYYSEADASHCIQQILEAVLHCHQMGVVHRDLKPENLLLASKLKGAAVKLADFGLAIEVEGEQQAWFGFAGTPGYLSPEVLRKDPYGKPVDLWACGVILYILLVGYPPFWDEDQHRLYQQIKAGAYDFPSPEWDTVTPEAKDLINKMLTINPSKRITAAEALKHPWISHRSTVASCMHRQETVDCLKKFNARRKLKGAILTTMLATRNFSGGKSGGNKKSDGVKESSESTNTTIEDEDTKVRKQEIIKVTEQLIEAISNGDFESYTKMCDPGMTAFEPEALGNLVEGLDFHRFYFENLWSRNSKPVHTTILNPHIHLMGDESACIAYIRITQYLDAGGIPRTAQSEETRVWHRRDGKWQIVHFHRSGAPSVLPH
# Effect on: enzyme activity
# Action: inhibitor
# Tested at: 10 µM
SMILES,inhibition [%]
CSCC[C@H](NC(C)=O)C(=O)O,-11
COc1cccc(N2CCN(C3=Nc4c(F)cccc4[C@H](CC(=O)O)N3c3cc(C(F)(F)F)ccc3OC)CC2)c1,-12
CC1(C)[C@@H](O)CC[C@]2(C)[C@H]3CC=C4[C@@H]5C[C@@]6(C)C[C@H](OC6=O)[C@]5(C)CC[C@@]4(C)[C@]3(C)CC[C@@H]12,-25
O=Cc1cc(O)ccc1O,-20
C=C1C(=O)O[C@@H]2/C=C(\C)CC/C=C(\C)CC[C@@H]12,-1
N[C@H](CCSSCC[C@@H](N)C(=O)O)C(=O)O (racemic),20
C/C=C(/C)C(=O)O[C@H]1[C@H](O)[C@]2(COC(C)=O)[C@H](O)C[C@]3(C)C(=CC[C@@H]4[C@@]5(C)CC[C@H](O[C@@H]6O[C@H](C(=O)O)[C@@H](O[C@@H]7O[C@H](CO)[C@@H](O)[C@H](O)[C@H]7O)[C@H](O)[C@H]6O[C@@H]6O[C@H](CO)[C@@H](O)[C@H](O)[C@H]6O)[C@](C)(CO)[C@@H]5CC[C@]43C)[C@@H]2CC1(C)C,16
CC(O)[C@H](C)[C@H](N)C(=O)O (some centres unmarked),2
CC(C)(O[C@@H]1O[C@H](CO)[C@@H](O)[C@H](O)[C@H]1O)[C@H]1Oc2cc3oc(=O)ccc3cc2[C@H]1O,-6
NC(=O)c1ncn([C@@H]2O[C@H](CO)[C@@H](O)[C@H]2O)c1N,13
C=C(C(=O)O)[C@@H]1CC[C@H](C)[C@@H]2CC(=O)C(C)=C2C1,8
C/C=C(/C)C(=O)O[C@H]1Cc2cc3ccc(=O)oc3cc2OC1(C)C,45
Cc1cc(C)c(O)c(C)c1,-26

# Series 3
# SMILES: O=C1NC(=O)C(c2c[nH]c3ccccc23)=C1c1c[nH]c2ccccc12
# Effect on: enzyme activity
# Action: inhibitor
# Tested at: 0.5 µM
# Baseline: control
target,remaining activity [%]
"Cyclin-dependent kinase 5, with p35 (CDK5, Homo sapiens, UniProt Q00535)",79.5
"Ribosomal protein S6 kinase beta-2 (RPS6KB2, Homo sapiens, UniProt Q9UBS0)",94.6
"Serine/threonine-protein kinase BRSK2 (BRSK2, Homo sapiens, UniProt Q8IWQ3)",86
"Serine/threonine-protein kinase pim-1 (PIM1, Homo sapiens, UniProt P11309)",17.2
"Tyrosine-protein kinase Fes/Fps (FES, Homo sapiens, UniProt P07332)",99.8
"Serine/threonine-protein kinase PAK 4 (PAK4, Homo sapiens, UniProt O96013)",102
"Ephrin type-B receptor 3 (EPHB3, Homo sapiens, UniProt P54753)",94.3

# Series 4
# Compound: Cc1c(NC(=O)c2cc(C(N)=O)nc3cc(F)ccc23)c(C(F)(F)F)nn1Cc1ccc(C#N)cc1
# Effect on: cell-free assay
# Technique: competition with immobilised ligand
# Tested at: 1 µM
target,remaining binding
"Mitogen-activated protein kinase 10 (MAPK10, Homo sapiens, UniProt P53779)",85%
"Mitogen-activated protein kinase kinase kinase kinase 4 (MAP4K4, Homo sapiens, UniProt O95819)",84%
"Dual specificity mitogen-activated protein kinase kinase 5 (MAP2K5, Homo sapiens, UniProt Q13163)",88%
"Tyrosine-protein kinase ABL1, non-phosphorylated (ABL1, Homo sapiens, UniProt P00519, Q252H)",100%
"Tyrosine-protein kinase BTK (BTK, Homo sapiens, UniProt Q06187)",70%
"Tyrosine-protein kinase Fyn (FYN, Homo sapiens, UniProt P06241)",94%
"G protein-coupled receptor kinase 4 (GRK4, Homo sapiens, UniProt P32298)",100%
"3-phosphoinositide-dependent protein kinase 1 (PDPK1, Homo sapiens, UniProt O15530)",73%
"Hormonally up-regulated neu tumor-associated kinase (HUNK, Homo sapiens, UniProt P57058)",77%
"Serine/threonine-protein kinase TAO2 (TAOK2, Homo sapiens, UniProt Q9UL54)",85%
"Serine/threonine-protein kinase 33 (STK33, Homo sapiens, UniProt Q9BYT3)",80%
"Ribosomal protein S6 kinase beta-1 (RPS6KB1, Homo sapiens, UniProt P23443)",80%
"Serine/threonine-protein kinase WNK2 (WNK2, Homo sapiens, UniProt Q9Y3S1)",87%
"Cyclin-dependent kinase 4, with cyclin D1 (CDK4, Homo sapiens, UniProt P11802)",87%
"Serine/threonine-protein kinase NIM1 (NIM1K, Homo sapiens, UniProt Q8IY84)",91%
"Serine/threonine-protein kinase Nek1 (NEK1, Homo sapiens, UniProt Q96PY6)",95%
"Mitogen-activated protein kinase 7 (MAPK7, Homo sapiens, UniProt Q13164)",95%
"Ephrin type-B receptor 4 (EPHB4, Homo sapiens, UniProt P54760)",100%

# A few entries again (series 2):
SMILES,inhibition [%]
C/C=C(/C)C(=O)O[C@H]1[C@H](O)[C@]2(COC(C)=O)[C@H](O)C[C@]3(C)C(=CC[C@@H]4[C@@]5(C)CC[C@H](O[C@@H]6O[C@H](C(=O)O)[C@@H](O[C@@H]7O[C@H](CO)[C@@H](O)[C@H](O)[C@H]7O)[C@H](O)[C@H]6O[C@@H]6O[C@H](CO)[C@@H](O)[C@H](O)[C@H]6O)[C@](C)(CO)[C@@H]5CC[C@]43C)[C@@H]2CC1(C)C,16
CSCC[C@H](NC(C)=O)C(=O)O,-11
CC(O)[C@H](C)[C@H](N)C(=O)O (some centres unmarked),2
CC1(C)[C@@H](O)CC[C@]2(C)[C@H]3CC=C4[C@@H]5C[C@@]6(C)C[C@H](OC6=O)[C@]5(C)CC[C@@]4(C)[C@]3(C)CC[C@@H]12,-25
Cc1cc(C)c(O)c(C)c1,-26
